Assay results collected from several papers.
Compare with care: the assays were run in different laboratories.
Organism: Acinetobacter baumannii

Compound	test	test system	conditions	MIC
CN[C@H](CC(C)C)C(=O)N[C@H]1C(=O)N[C@@H](CC(N)=O)C(=O)N[C@H]2C(=O)N[C@H]3C(=O)N[C@H](C(=O)N[C@H](C(=O)NCC(N)=O)c4cc(O)cc(O)c4-c4cc3ccc4O)[C@H](O)c3ccc(c(Cl)c3)Oc3cc2cc(c3O[C@@H]2O[C@H](CO)[C@@H](O)[C@H](O)[C@H]2O[C@H]2C[C@](C)(NCc3ccc(OCc4cn(CC(=O)N[C@H](C(=O)N[C@@H](CCN)C(=O)N[C@H]5CCNC(=O)[C@H]([C@@H](C)O)NC(=O)[C@H](CCN)NC(=O)[C@H](CCN)NC(=O)[C@H](CC(C)C)NC(=O)[C@@H](CC(C)C)NC(=O)[C@H](CCN)NC5=O)[C@@H](C)O)nn4)c(OC)c3)[C@H](O)[C@H](C)O2)Oc2ccc(cc2Cl)[C@H]1O	broth microdilution	ATCC 17978, cation-adjusted Mueller-Hinton broth	18 to 20 h, 37 °C, 0.002% polysorbate 80	128 µg/mL
CC[C@H](C)[C@H](NC(=O)[C@@H](CCCNC(=N)N)NC(=O)[C@H](CCCNC(=N)N)NC(=O)[C@@H]1CCCN1C(=O)[C@@H]1CCCN1C(=O)[C@H](Cc1c[nH]cn1)NC(=O)[C@@H]1CCCN1C(=O)[C@H](CCCNC(=N)N)NC(=O)[C@@H]1CCCN1C(=O)[C@H](CC(C)C)NC(=O)[C@H](Cc1ccc(O)cc1)NC(=O)[C@@H]1CCCN1C(=O)[C@@H]1CCCN1C(=O)[C@H](CCCCN)NC(=O)[C@H](CC(=O)O)NC(=O)[C@@H](N)C(C)C)C(=O)N[C@@H](Cc1ccc(O)cc1)C(=O)N[C@@H](CC(N)=O)C(=O)N[C@H](CCCNC(=N)N)C(N)=O	broth microdilution	DSM 30008	18 h, 37 °C, 25% MHB2	32 µg/mL
Oc1c(Br)cc(Br)c2nc3cc(C(F)(F)F)ccc3nc12	broth microdilution	ATCC 1794		7.88 µg/mL
CC(=O)N[C@H](Cc1ccc(C(F)(F)F)cc1)C(=O)N[C@@H](CCN)C(=O)N[C@H](C(=O)N[C@@H](CCN)C(=O)N[C@H]1CCNC(=O)[C@H]([C@@H](C)O)NC(=O)[C@H](CCN)NC(=O)[C@H](CCN)NC(=O)[C@H](CC(C)C)NC(=O)[C@@H](Cc2ccccc2)NC(=O)[C@H](CCN)NC1=O)[C@@H](C)O	broth microdilution	ATCC 19606, colistin-susceptible		0.5 to 2 µg/mL
CCCCCCCC(=O)N[C@@H](CCN)C(=O)N[C@@H](C)C(=O)N[C@@H](CCN)C(=O)N[C@H]1CCNC(=O)[C@H]([C@@H](C)O)NC(=O)[C@H](CCN)NC(=O)[C@H](CCN)NC(=O)[C@H](CC(C)C)NC(=O)[C@@H](Cc2ccccc2)NC(=O)[C@H](CCN)NC1=O	CLSI broth microdilution	248-01-C.248, CAMHB	20 h, 37 °C	> 512 µg/mL
CC[C@H](C)[C@H](NC(=O)[C@@H](CCCNC(=N)N)NC(=O)[C@H](CCCNC(=N)N)NC(=O)[C@@H]1CCCN1C(=O)[C@@H]1CCCN1C(=O)[C@H](CCCCNC(=N)N)NC(=O)[C@@H]1CCCN1C(=O)[C@H](CCCNC(=N)N)NC(=O)[C@@H]1CCCN1C(=O)[C@H](CC(C)C)NC(=O)[C@H](Cc1ccc(O)cc1)NC(=O)[C@@H]1CCCN1C(=O)[C@@H]1CCCN1C(=O)[C@H](CCCCN)NC(=O)[C@H](CC(=O)O)NC(=O)[C@@H](N)C(C)C)C(=O)N[C@@H](Cc1ccc(O)cc1)C(=O)N[C@@H](CC(N)=O)C(=O)N[C@H](CCCNC(=N)N)C(N)=O	broth microdilution	DSM 30008	18 h, 37 °C, 25% MHB2	32 µg/mL
C=C1NC(=O)C2CSCC3NC(=O)C(CSC(C)C(NC(=S)C(Cc4cnc[nH]4)NC(=O)c4csc(C(C)NC(C)=O)n4)C(=O)N[C@H](CC(C)C(=O)NC(=O)CC(C(=O)O)NC(=O)C(C)NC3=O)C(=O)N2)NC(=O)[C@@H]2CCCN2C(=O)[C@@H](CC(C)C)NC1=O (stereo partly drawn)	bacterial growth	09987		> 32 µg/mL
CC[C@H](C)[C@H](NC(=O)[C@@H](CCCNC(=N)N)NC(=O)[C@H](CCCNC(=N)N)NC(=O)[C@@H]1CCCN1C(=O)[C@@H]1CCCN1C(=O)[C@H](CCCNC(=N)N)NC(=O)[C@@H]1CCCN1C(=O)[C@H](CCCNC(=N)N)NC(=O)[C@@H]1CCCN1C(=O)[C@H](Cc1ccccc1)NC(=O)[C@H](Cc1ccc(O)cc1)NC(=O)[C@@H]1CCCN1C(=O)[C@@H]1CCCN1C(=O)[C@H](CCCCN)NC(=O)[C@H](CC(=O)O)NC(=O)[C@@H](N)C(C)C)C(=O)N[C@@H](Cc1ccc(O)cc1)C(=O)N[C@@H](CC(N)=O)C(=O)N[C@H](CCCNC(=N)N)C(N)=O	broth microdilution	DSM 30008	18 h, 37 °C, 25% MHB2	128 µg/mL
CC(=O)N[C@H](Cc1ccc(F)cc1)C(=O)N[C@@H](CCN)C(=O)N[C@H](C(=O)N[C@@H](CCN)C(=O)N[C@H]1CCNC(=O)[C@H]([C@@H](C)O)NC(=O)[C@H](CCN)NC(=O)[C@H](CCN)NC(=O)[C@H](CC(C)C)NC(=O)[C@@H](Cc2ccccc2)NC(=O)[C@H](CCN)NC1=O)[C@@H](C)O	broth microdilution	ATCC 19606, colistin-susceptible		2 to 4 µg/mL
CN[C@@H]1[C@H](O)[C@H](NC)[C@H]2O[C@]3(O)[C@H](O[C@@H]2[C@H]1O)O[C@H](C)C[C@H]3NC(=O)Cc1cscn1	microbial growth, broth dilution	ATCC19606		> 200 µg/mL
CC[C@H](C)[C@H](NC(=O)[C@H](Cc1c[nH]c2ccccc12)NC(=O)[C@H](Cc1ccc(O)cc1)NC(=O)[C@H](CCCCN)NC(=O)[C@H](CC(C)C)NC(=O)[C@@H](N)CO)C(=O)N[C@@H](CCCNC(=N)N)C(=O)N[C@@H](Cc1ccc(O)cc1)C(=O)N[C@@H](CCCCN)C(=O)N[C@@H](CCCNC(=N)N)C(=O)N[C@@H](CCC(N)=O)C(=O)NCC(=O)N[C@@H](C)C(=O)N[C@@H](C)C(=O)N[C@@H](CCCNC(=N)N)C(=O)N[C@@H](Cc1ccccc1)C(N)=O	broth dilution	ATCC 19606		6.3 µM
CCn1c(-c2ccc(Br)cc2)c(-c2ccc(Br)cc2)n(CC)c1=[Se]	broth microdilution	carbapenem-resistant	24 h	> 40 µM
CCCCCCCC(=O)N[C@@H](CCN)C(=O)N[C@H](C(=O)N[C@@H](CCN)C(=O)N[C@H]1CCNC(=O)[C@H]([C@@H](C)O)NC(=O)[C@H](CCN)NC(=O)[C@H](CCN)NC(=O)[C@H](Cc2ccccc2F)NC(=O)[C@@H](CC(C)C)NC(=O)[C@H](CCN)NC1=O)[C@@H](C)O	broth microdilution	ATCC 19606, colistin-susceptible		0.125 to 0.25 µg/mL
CC(C)C[C@H](NC(=O)[C@H](CC(C)C)NC(=O)[C@H](CCCCN)NC(=O)[C@H](Cc1ccccc1)NC(=O)[C@@H](NC(=O)[C@H](CCCNC(=N)N)NC(=O)[C@H](CCCCN)NC(=O)[C@H](Cc1c[nH]c2ccccc12)NC(=O)[C@@H](NC(=O)[C@@H](N)CCCNC(=N)N)C(C)C)C(C)C)C(=O)N[C@@H](CCCCN)C(=O)N[C@@H](CCCNC(=N)N)C(=O)N[C@@H](Cc1ccc(O)cc1)C(=O)N[C@@H](Cc1c[nH]c2ccccc12)C(=O)N[C@@H](CCCNC(=N)N)C(N)=O	broth microdilution	18		1.25 µg/mL
CC(C)C[C@@H]1NC(=O)[C@@H](CC(C)C)NC(=O)[C@H](CCN)NC(=O)[C@@H](NC(=O)[C@H](CCN)NC(=O)[C@@H](NC(=O)CN=[N+]=[N-])[C@@H](C)O)CCNC(=O)[C@H]([C@@H](C)O)NC(=O)[C@H](CCN)NC(=O)[C@H](CCN)NC1=O	broth microdilution	BAA-747		> 126 µM
CC[C@H](C)[C@H](NC(=O)[C@@H](CCCNC(=N)N)NC(=O)[C@H](CCCNC(=N)N)NC(=O)[C@@H]1CCCN1C(=O)[C@@H]1CCCN1C(=O)[C@H](Cc1ccccc1)NC(=O)[C@@H]1CCCN1C(=O)[C@H](CCCNC(=N)N)NC(=O)[C@@H]1CCCN1C(=O)[C@H](CC(C)C)NC(=O)[C@H](Cc1ccc(O)cc1)NC(=O)[C@@H]1CCCN1C(=O)[C@@H]1CCCN1C(=O)[C@H](CCCCN)NC(=O)[C@H](CC(=O)O)NC(=O)[C@@H](N)C(C)C)C(=O)N[C@@H](Cc1ccc(O)cc1)C(=O)N[C@@H](CC(N)=O)C(=O)N[C@H](CCCNC(=N)N)C(N)=O	broth microdilution	DSM 30008	18 h, 37 °C, 25% MHB2	16 µg/mL
CCCCCCCC(=O)N[C@@H](CCN)C(=O)N[C@H](C(=O)N[C@@H](CCN)C(=O)N[C@H]1CCNC(=O)[C@H](C)NC(=O)[C@H](CCN)NC(=O)[C@H](CCN)NC(=O)[C@H](CC(C)C)NC(=O)[C@@H](Cc2ccccc2)NC(=O)[C@H](CCN)NC1=O)[C@@H](C)O	CLSI broth microdilution	246-01-C.246, CAMHB	20 h, 37 °C	1 µg/mL
CC[C@H](C)[C@H](NC(=O)[C@H](CCCCN)NC(=O)[C@@H](NC(=O)[C@@H](NC(=O)[C@H](CC(C)C)NC(=O)[C@H](CCCNC(=N)N)NC(=O)[C@@H](NC(=O)[C@H](CC(C)C)NC(=O)[C@H](CCCNC(=N)N)NC(=O)CNC(=O)[C@H](Cc1ccccc1)NC(=O)[C@@H](N)CCCNC(=N)N)[C@@H](C)CC)[C@@H](C)CC)C(C)C)C(=O)N[C@@H](C)C(=O)N[C@@H](CCCNC(=N)N)C(=O)N[C@@H](CCCNC(=N)N)C(=O)N[C@@H](C)C(=O)N[C@@H](Cc1c[nH]cn1)C(=O)N[C@@H](CCCNC(=N)N)C(=O)N[C@@H](C)C(=O)N[C@@H](CCCNC(=N)N)C(=O)N1CCC[C@H]1C(=O)N[C@@H](C)C(=O)N[C@H](C(=O)N[C@@H](CCCCN)C(=O)N[C@@H](C)C(=O)N[C@@H](C)C(=O)N[C@@H](CO)C(=O)N[C@@H](CC(N)=O)C(=O)N[C@H](C(=O)N[C@@H](C)C(=O)N[C@@H](CCC(=O)O)C(=O)N[C@@H](CC(C)C)C(=O)N[C@@H](C)C(=O)N[C@@H](Cc1c[nH]cn1)C(=O)NCC(=O)N[C@@H](CCC(=O)O)C(N)=O)C(C)C)C(C)C	bacterial growth, broth microdilution	cation-adjusted Mueller Hinton broth	18 h, 37 °C	≤ 0.062 µM
